Assay results pooled from the literature.
Lines come from different studies, so protocols differ. ± marks the error that the study gave.
Cell line: A498

SMILES	assay	setting	how to read	quantity	value
Nc1ncnc2c1ncn2CCN1C(=O)C(=O)c2cc(Cl)ccc21	cell growth, SRB	72 h		IC50	17.9 ± 4.24 µg/mL
C#C[C@@]1(O)[C@@H](CO)O[C@@H](n2ccc3c(N)ncnc32)[C@@H]1O	SRB	NCI-60 screen		TGI	3.74 µM
Cc1cc(=O)[nH]n1-c1nc(-c2ccc(Cl)cc2)c2c(NC(=O)c3ccccc3)nnc-2[nH]1	SRB	10 µM, NCI60 single-dose screen	reference: untreated	cell growth	115%
NC(=S)N/N=C1\C(=O)N(CCn2ncc3c(=O)[nH]cnc32)c2ccc(Cl)cc21	cell growth, SRB	72 h		IC50	5.83 ± 2.81 µg/mL
CCn1cc(-c2cc(Cn3ccnc3)cc3c2CCN([C@H](c2cc(OC)ccn2)C2CC2)C3=O)c(C(F)(F)F)n1	cell growth, inhibitor	120 h		EC50	> 30000 nM
Cc1cc(C)n(-c2nc(-c3ccc(Cl)cc3)c3c(NC(=O)c4ccccc4)nnc-3[nH]2)n1	SRB	10 µM, NCI60 single-dose screen	reference: untreated	cell growth	119%
O=C1C(=O)N(CCn2ncc3c(=O)[nH]cnc32)c2ccc(Cl)cc21	cell growth, SRB	72 h		IC50	5.6 ± 1.57 µg/mL
C#C[C@@]1(O)[C@@H](CO)O[C@@H](n2cc(F)c3c(N)ncnc32)[C@@H]1O	SRB	NCI-60 screen		TGI	2.27 µM
Cc1cc(-c2ccccc2)n(-c2nc(-c3ccc(Cl)cc3)c3c(NC(=O)c4ccccc4)nnc-3[nH]2)n1	SRB	10 µM, NCI60 single-dose screen	reference: untreated	cell growth	92.1%
COc1cnc2cccc(N3CCc4c(cc(Cn5ccnc5C)cc4-c4cn(C)nc4C(F)(F)F)C3=O)c2c1	cell growth, inhibitor	120 h		EC50	1820 nM
COC(=O)/C=C1\C(=O)C=C2C3CC4CC(CCC4(C)N21)C3(C)NC(C)=O (stereo not shown)	cell growth	NCI screen		IC50	18.7 µM
COc1ccc2c(c1)C(=O)C(=O)N2CCn1ncc2c(=O)[nH]cnc21	cell growth, SRB	72 h		IC50	10.2 ± 3.51 µg/mL
O=C(Nc1nnc2n3c(=S)[nH][nH]c3nc(-c3ccc(Cl)cc3)c1-2)c1ccccc1	SRB	10 µM, NCI60 single-dose screen	reference: untreated	cell growth	101%
O=C1NC(=NCc2cccs2)S/C1=C\c1ccc2ncccc2c1	MTS	NCI60 panel		IC50	> 10 µM
Cc1n[nH]c2nc(-c3ccc(Cl)cc3)c3c(NC(=O)c4ccccc4)nnc-3n12	SRB	10 µM, NCI60 single-dose screen	reference: untreated	cell growth	106%
Cn1cncc1C1=CN(c2ncnc3[nH]cnc23)CCS1		renal cancer		GI50	4.8 µM

A few entries again:
SMILES	assay	setting	how to read	quantity	value
Cc1cc(C)n(-c2nc(-c3ccc(Cl)cc3)c3c(NC(=O)c4ccccc4)nnc-3[nH]2)n1	SRB	10 µM, NCI60 single-dose screen	reference: untreated	cell growth	119%
O=C(Nc1nnc2n3c(=S)[nH][nH]c3nc(-c3ccc(Cl)cc3)c1-2)c1ccccc1	SRB	10 µM, NCI60 single-dose screen	reference: untreated	cell growth	101%
O=C1NC(=NCc2cccs2)S/C1=C\c1ccc2ncccc2c1	MTS	NCI60 panel		IC50	> 10 µM
